Assay results pooled from the literature.
Lines come from different studies, so protocols differ. Several values in a cell are separate wells, animals, samples, runs or records. ± marks the error that the study gave.
YAP1 WW1 domain: Transcriptional coactivator YAP1, WW1 domain (YAP1, Homo sapiens, UniProt P46937)
YAP1 WW2 domain: Transcriptional coactivator YAP1, WW2 domain (YAP1, Homo sapiens, UniProt P46937)
Calm1: Calmodulin-1 (Calm1, Rattus norvegicus, UniProt P0DP29)
Kelch domain-containing protein 2: Kelch domain-containing protein 2 (UniProt Q9Y2U9)
CFTR del508-508: Cystic fibrosis transmembrane conductance regulator (CFTR, Homo sapiens, UniProt P13569, del508-508)
KCNT1: Potassium channel subfamily T member 1 (KCNT1, Homo sapiens, UniProt Q5JUK3)
T1: DNA triplex, hexaethylene glycol linkers after 12, 24; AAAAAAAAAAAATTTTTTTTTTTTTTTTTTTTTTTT

CC(=O)Oc1c(C)occc1=O
kobs (porcine liver esterase; conversion; 50 µM, pH 7.5, room temperature, with: PLE 0.178 U): 9 s⁻¹

IINFEKE
Vmax (ERAP1 (Homo sapiens, UniProt Q9NZ08, I681R); L-AMC hydrolysis, activator; peptide; 100 µM, 5 min, pH 8.0, 27 °C, mutant I681R, with: L-AMC varied from 0 µM): 234 ± 7 nmol/min/µg

O=C(O)/C(O)=C/C=C\Br
KI (4-oxalocrotonate tautomerase (Leptothrix cholodnii, UniProt B1Y2E4); irreversible inactivation, covalent inhibitor; pH 7.3, 24 °C): 260 µM

CCN(CC)c1ccc2c(C)c(CCN3CC4(CCN(c5ncnc6[nH]ncc56)CC4)NC3=O)c(=O)oc2c1
fold protection (human WIL-FL light chain dimer; proteolysis, stabilizer, proteinase K digestion; 10 µM, 2 h, 37 °C, 1% DMSO, with: proteinase K 50 nM; baseline: vehicle): > 0.99

C[C@]12CC[C@H](O)CC1=CC[C@@H]1[C@@H]2CC[C@]2(C)C(c3cccnc3)=CC[C@@H]12
koff (CYP17A1 (Homo sapiens, UniProt P05093); dissociation, jump-dilution; with: allopregnanolone 20 µM): 0.000155 s⁻¹

CC[C@H](C)[C@H](NC(=O)[C@@H]1CCCN1C(=O)[C@@H]1CCCN1C(=O)[C@@H]1CCCN1C(=O)[C@@H](NC(=O)[C@H](CC(N)=O)NC(=O)[C@@H](N)Cc1ccccc1)[C@@H](C)CC)C(=O)N[C@@H](Cc1ccc(O)cc1)C(=O)N[C@H](C(=O)N[C@@H](CO)C(=O)N[C@@H](CCCNC(=N)N)C(=O)N[C@@H](C)C(=O)O)[C@@H](C)O
ΔH (YAP1 WW1 domain; binding, ITC; pH 7.0, 25 °C, WW1 domain): -6.14 ± 0.31 kcal/mol

OC[C@H]1OC(O)[C@H](O)[C@@H](O)[C@@H]1O (stereo partly shown)
remaining activity (Beta-glucosidase (Oenococcus oeni, UniProt Q04DP9); 0.2 mol/L, pH 5.5, 37 °C; baseline: initial activity): 60%

NC[C@H]1O[C@H](O[C@H]2[C@H](O[C@@H]3O[C@H](CO)[C@@H](O)[C@H]3O)[C@@H](O)[C@H](N)C[C@@H]2N)[C@H](N)[C@@H](O)[C@@H]1O
binding (T1, DNA triplex, hexaethylene glycol linkers after 12, 24; ITC; pH 6.8, KCl 150 mM): binds weakly

CC(C)C[C@H](NC(=O)[C@@H](NC(=O)[C@@H](N)[C@@H](C)O)C(C)C)C(=O)N1CCC[C@H]1C(=O)N1CCC[C@H]1C(=O)N1CCC[C@H]1C(=O)N1CCC[C@H]1C(=O)N[C@@H](Cc1ccc(O)cc1)C(=O)N[C@@H](C)C(=O)N[C@@H](Cc1c[nH]cn1)C(=O)N[C@@H](CCCNC(=N)N)C(=O)N[C@@H](CC(N)=O)C(=O)O
ΔH (YAP1 WW1 domain; binding, ITC; pH 7.0, 25 °C, WW1 domain): -9.8 ± 0.28 kcal/mol

CC(C)C[C@H](NP(=O)(O)O[C@@H]1O[C@@H](C)[C@H](O)[C@@H](O)[C@H]1O)C(=O)N[C@@H](Cc1c[nH]c2ccccc12)C(=O)O
THF Lys-Phe bond cleavage (peptidases; inhibitor; human blood; 7 to 607 µM, 30 min preincubation, 37 °C, with: THF): inhibited

FC(F)(F)c1cc(Nc2nc(Cl)nc(Cl)n2)cc(C(F)(F)F)c1
HRP binding (CD209 antigen (CD209, Homo sapiens, UniProt Q9NNX6); activator, plate-based HRP; 500 µM, overnight, 4 °C or RT; baseline: DMSO control): ≥ 50%

CC(C)C[C@H](NC(=O)[C@@H](NC(=O)[C@@H](N)[C@@H](C)O)C(C)C)C(=O)N1CCC[C@H]1C(=O)N1CCC[C@H]1C(=O)N1CCC[C@H]1C(=O)N1CCC[C@H]1C(=O)N[C@@H](Cc1ccc(O)cc1)C(=O)N[C@@H](CCCNC(=N)N)C(=O)N[C@@H](Cc1c[nH]cn1)C(=O)N[C@@H](C)C(=O)N[C@@H](CC(N)=O)C(=O)O
TΔS (YAP1 WW2 domain; binding, ITC; pH 7.0, 25 °C, WW2 domain): -3.49 ± 0.01 kcal/mol

IKPAKRMKFKTVCYLLVQLMHCRKMFKA
koff2 (Calm1; Ca2+ dissociation, stopped-flow quin-2 fluorescence; peptide; 2 µM, pH 7.4, 22 °C, with: Ca2+-calmodulin complex): 1.16 s⁻¹ and 1.2 s⁻¹

Nc1cc(COc2c(Cl)cc(C[C@H](N)C(=O)O)cc2Cl)c2oc(-c3ccccc3)nc2c1
remaining activity (SLC7A5 (Homo sapiens, UniProt Q01650); leucine uptake, inhibitor; HEK293 expressing human LAT1; 20 µM, 30 min, read immediately after washout, with: L-[14C]leucine 1 µM; baseline: untreated): ~20%

EKGGGSGGG
fraction of protein bound (Kelch domain-containing protein 2; native mass spectrometry; peptide, 200 mM ammonium acetate; 20 µM Kelch domain-containing protein 2, pH 7; baseline: total Kelch domain-containing protein 2 signal): 19.5%

O=C(O)CNC(=O)C(CS)Cc1ccccc1 (stereo not shown)
ANG-(2-10) formation (Neprilysin (Rattus norvegicus, UniProt P07861); inhibitor, MALDI-TOF MS; isolated rat glomeruli; 10 µM, 60 min, 37 °C, with: ANG-I 1 µM): 46.6 ± 10.5 pg/glomerulus

Cc1ccc(C(=O)Nc2ccc3ccccc3c2)o1
effect on acid-evoked current (Otop1 (Mus musculus, UniProt Q80VM9, T233A); whole-cell patch-clamp; concentration not given, pH 6.0; baseline: wild type): decreased

O=C(/C=C/C=C/c1ccc2c(c1)OCO2)N1CCCCC1
Hill coefficient of GABA curve (Gabra3/Gabrb2 (Rattus norvegicus, UniProt P20236+P63138); two-electrode voltage clamp; Xenopus oocytes; 100 µM): 1.1 ± 0.2

CSCC[C@H](NC(=O)[C@@H]1CCCN1C(=O)[C@@H](NC(=O)[C@H](Cc1ccc(O)cc1)NC(=O)[C@H](C)NC(=O)[C@@H]1CCCN1C(=O)[C@@H]1CCCN1C(=O)[C@@H]1CCCN1C(=O)[C@H](CO)NC(=O)[C@H](Cc1c[nH]cn1)NC(=O)CN)[C@@H](C)O)C(=O)N[C@@H](CO)C(=O)O
ΔG (YAP1 WW1 domain; binding, ITC; pH 7.0, 25 °C, WW1 domain): -5.57 ± 0.08 kcal/mol

O=S(=O)(Sc1ccccc1Cl)c1ccccc1Cl
inhibition (tubulin; colchicine binding, [3H]colchicine binding; 50 µM, 10 min, 37 °C, with: [3H]colchicine 5.0 µM): 31 ± 4%

CCC(C)C(=O)Nc1nc2c(s1)-c1nc(Nc3cc(Cl)ccc3OC)sc1CCC2 (stereo not shown)
Vmax (CFTR del508-508; iodide influx, corrector, YFP halide quenching; FRT cells expressing YFP-H148Q/I152L; 16 to 20 h, 37 °C, genistein 50 µM, with: forskolin 20 µM): 447 µM/s

CCOc1ccccc1S(=O)(=O)N1CC(c2nc(-c3ccccc3C)no2)C1
efficacy (KCNT1; Tl+ flux, activator; HEK293 expressing KCNT1; 30 µM; baseline: loxapine maximum response): < 10%

NRGFVFGG
fraction of protein bound (Kelch domain-containing protein 2; native mass spectrometry; peptide, 200 mM ammonium acetate; 20 µM Kelch domain-containing protein 2, pH 7; baseline: total Kelch domain-containing protein 2 signal): 0.4%

Clc1ccc(-c2cs/c(=N/N=C\c3c[nH]c4ccccc34)n2Cc2ccccc2)cc1
inhibition (Aldo-keto reductase family 1 member A1 (Bos taurus, UniProt Q3ZCJ2); enzyme activity, inhibitor, absorbance; 1 mM): < 50%

COc1cccc(C(=O)NCCNc2nc3cc(C)cc(C)c3cc2C#N)c1
Vmax (CFTR del508-508; CFTR correction, corrector, iodide influx rate; FRT expressing YFP-H148Q/I152L; up to 25 µM, 16-20 h, 37 °C, with: forskolin 20 µM, genistein 50 µM): 300 µM/s

O=S(=O)(Sc1cccc(F)c1)c1cccc(F)c1
inhibition (tubulin; colchicine binding; 5 µM, 10 min, 37 °C, with: 5.0 µM [3H]colchicine): 8.9 ± 0.9%

CCOc1ccccc1S(=O)(=O)N1CC(c2nnc(-c3ccc(F)cc3)o2)C1
efficacy (KCNT1; Tl+ flux, activator; HEK293 expressing KCNT1; 30 µM; baseline: loxapine maximum response): < 10%

CC(C)[C@H](NC(=O)[C@@H](N)[C@@H](C)O)C(=O)N[C@@H](C)C(=O)N1CCC[C@H]1C(=O)N1CCC[C@H]1C(=O)N1CCC[C@H]1C(=O)N1CCC[C@H]1C(=O)N[C@@H](Cc1ccc(O)cc1)C(=O)N[C@@H](CCCNC(=N)N)C(=O)N[C@@H](Cc1c[nH]cn1)C(=O)N[C@@H](CCCNC(=N)N)C(=O)N[C@@H](CC(N)=O)C(=O)O
ΔH (YAP1 WW1 domain; binding, ITC; pH 7.0, 25 °C, WW1 domain): -16.1 ± 0.64 kcal/mol

CCOc1ccccc1NC(=O)N1CC(c2nc(-c3ccsc3)no2)C1
efficacy (KCNT1; Tl+ flux, activator; HEK293 expressing KCNT1; 30 µM; baseline: loxapine maximum response): < 10%

YSLAAVVLGLVQSLNRQRQKQLLNE
koff1 (Calm1; Ca2+ dissociation, stopped-flow quin-2 fluorescence; peptide; 2 µM, pH 7.4, 22 °C, with: Ca2+-calmodulin complex): 8.38 s⁻¹ and 8.4 s⁻¹

Clc1cccc(Nc2nnc(-c3ccccc3)c3ccccc23)c1
IC50 (PDE3A (Homo sapiens, UniProt Q14432); cGMP hydrolysis, inhibitor, fluorescence polarization; recombinant enzyme; up to 100 µM, 30 min preincubation, 30 °C, with: TAMRA-cGMP 25 nM): inactive

C/C=C1\CN2CCC34CC5C6CC7c8c(c9ccccc9n8C)CC(C6COC5(C)OC35C2CC1C(C(=O)OC)N5c1ccccc14)N7C (stereo not shown)
ED50 (RELA (Homo sapiens, UniProt Q04206); DNA binding, inhibitor, ELISA; HeLa nuclear extract): > 20 µM

CC(=O)Oc1ccccc1C(=O)O
current change (Degenerin mec-4 (mec-4, Caenorhabditis elegans, UniProt P24612, A713T); ion current, two-electrode voltage clamp; Xenopus oocytes coexpressing MEC-2; 30 µM, -85 mV; baseline: uninjected oocytes, positive inhibition, negative potentiation): -4.75 µA

Cc1ccc(S(=O)(=O)N2CC(c3nc(-c4ccsc4)no3)C2)cc1
activity class (KCNT1; Tl+ flux, inhibitor; HEK293 expressing KCNT1; 30 µM): inactive

CC(C)C[C@H](NC(=O)[C@@H](NC(=O)[C@@H](N)[C@@H](C)O)C(C)C)C(=O)N1CCC[C@H]1C(=O)N1CCC[C@H]1C(=O)N1CCC[C@H]1C(=O)N1CCC[C@H]1C(=O)N[C@@H](Cc1ccc(O)cc1)C(=O)N[C@@H](CCCNC(=N)N)C(=O)N[C@@H](Cc1c[nH]cn1)C(=O)N[C@@H](CCCNC(=N)N)C(=O)N[C@@H](CC(N)=O)C(=O)O
ΔH (YAP1 WW2 domain; binding, ITC; pH 7.0, 25 °C, WW2 domain): -7.72 ± 0.54 kcal/mol

O=C(C[C@@H](C(F)F)n1ccc(F)n1)N1CCC(O)(Cn2cnc3c(cnn3-c3ccc(F)cc3)c2=O)CC1
IC50 fold change (USP7 (Homo sapiens, UniProt Q93009, V517F); enzyme activity, inhibitor, Ub-AMC; baseline: V517F over wild type): ~2340 fold

Nc1ncnc2c1ncn2[C@@H]1O[C@H](COP(=O)(O)OP(=O)(O)OP(=O)(O)O)[C@@H](O)[C@H]1O
ΔTm (HARS1 (Homo sapiens, UniProt P12081, S356N); thermal stability, DSF): 2.25 °C

N[C@@H](Cc1cnc[nH]1)C(=O)O
ΔTm (HARS1 (Homo sapiens, UniProt P12081); thermal stability, DSF): 7 °C

IINFEKL
Hill coefficient (ERAP1 (Homo sapiens, UniProt Q9NZ08, F803R); substrate; peptide; pH 8.0, 27 °C, mutant F803R, with: L-AMC, peptide activator 100 µM): 2

C=CC(=O)Nc1ccccc1Nc1nc(Nc2ccc(N3CCN(C)CC3)cc2)ncc1Cl
labelling (SRC (Homo sapiens, UniProt P12931); probe binding, inhibitor, chemoproteomic competition; NCI-H23 KRAS G12C; 100 nM, 2 h, with: 2 µM desthiobiotin probe): > 50%

For quick reference, copied from above:
CCOc1ccccc1S(=O)(=O)N1CC(c2nc(-c3ccccc3C)no2)C1
efficacy (KCNT1; Tl+ flux, activator; HEK293 expressing KCNT1; 30 µM; baseline: loxapine maximum response): < 10%

NRGFVFGG
fraction of protein bound (Kelch domain-containing protein 2; native mass spectrometry; peptide, 200 mM ammonium acetate; 20 µM Kelch domain-containing protein 2, pH 7; baseline: total Kelch domain-containing protein 2 signal): 0.4%

Clc1ccc(-c2cs/c(=N/N=C\c3c[nH]c4ccccc34)n2Cc2ccccc2)cc1
inhibition (Aldo-keto reductase family 1 member A1 (Bos taurus, UniProt Q3ZCJ2); enzyme activity, inhibitor, absorbance; 1 mM): < 50%
